Published values collected from several papers.
A part holds a random share of what one study measured.

Sample 1
Target: RNA binding protein fox-1 homolog 2, RRM domain, GST-SBP tag (RBFOX2, Homo sapiens, UniProt O43251-10, residues 100-194)
Technique: RNA Bind-n-Seq
Molecule type: RNA
Sample: in vitro
Tested at: 365 nM
Notes: natural RNA segment, single round, ends assumed
Relative to: no-protein control
Reading: higher = stronger binding
Residues (chain): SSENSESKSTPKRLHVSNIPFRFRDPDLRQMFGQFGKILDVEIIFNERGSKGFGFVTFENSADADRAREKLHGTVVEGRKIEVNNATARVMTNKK
| Strand | RBNS enrichment (R) |
| --- | --- |
| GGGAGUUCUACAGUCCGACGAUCGUAAUUUCAUGGUGGCCUAGUGUUGUGGUGCUUCUGGUAAUGGUAAUAGAAGCUCAACUAUUUUUUUGUGGAUUUCAGUUUUUAUCAUCAGAAGUCCUAGACAGUGACAUUGGAAUUCUCGGGUGCCAA | 0.329 |
| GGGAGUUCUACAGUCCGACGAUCGUCUGUCUAGAGUGAAUACUUCACAGAUCUCAUUUAGGGAGAGCCUGGUCUAUGGACUAAGCUGAAUUUUCCCACAUAGAUUCUAAAAUUAAAUGUAUUAGUUGCUAAGUUGGAAUUCUCGGGUGCCAA | 0.504 |
| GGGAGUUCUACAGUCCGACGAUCAGGGGACGAAGGUGGGGAUCCUGAAAUGUUCUUCAACUGGGGAAGACAGAGCUCACCUUCAGGCAGGAGCAGGGGCCUCAGCAUUCUGCAGUGAGUGUAGAGUGAAAGUCUGGAAUUCUCGGGUGCCAA | 0.611 |
| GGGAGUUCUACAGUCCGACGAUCCAGCCUGAGGGUGAAGAAAACCACAUCACCCUGCCUUUAUGUGCUGAGGCACAUUCCUGUCUCCCAUCCUCCCUCCCAUUCAUGUCUGCAACCCCCUCGCCCCAGCAGCAUGGAAUUCUCGGGUGCCAA | 1.83 |
| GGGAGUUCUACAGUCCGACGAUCGGAAGCCGUGGGGUCCCUCAGGCCUGGGCGGUGCAGCUUCCAGAGAGCGAGCGCCCUUUAGCGGCCUGCCACCACAGCACGCGGCCUCCUGAUCCGGAAGCACGCAGCAUUGGAAUUCUCGGGUGCCAA | 21.9 |
| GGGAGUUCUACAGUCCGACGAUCGAUUUUUGAGUCGUUAUCAAGCUAAGUGGCAAGCGGGAAGCUGAAACUCGUAUAGGUGAACAUUCUUGGAGGCUUAUCUCUUCCCUGGCCAGAUGCCUGAUCAGAUGAGAUGGAAUUCUCGGGUGCCAA | 0.279 |
| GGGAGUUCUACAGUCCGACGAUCCUCCUUGCCUGGCCUUAGCCGUUUCUUGGAGCAUCACUAAUGGCCCAGCCCCCAGGCACAAGGGGCAGAGAGACAGGCAGUCGCCCCAGAUAGGCUCCGGGGAAGUCCAUUGGAAUUCUCGGGUGCCAA | 0.255 |
| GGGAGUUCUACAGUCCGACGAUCUUCUUCCAGAGGAUGCAUUUGGAUCCCAGAGGAGUGUUUUCUGGAAGACAAUCUUUCAACAUCCCUACAUUCCUGAUAUGAAGCAGGAAUUUGCACAUGGUGUAGAGAGCUGGAAUUCUCGGGUGCCAA | 0.452 |

Sample 2
Target: Sal-like protein 4, full length isoform B (SALL4, Homo sapiens, UniProt Q9UJQ4-2, residues 1-616)
Technique: universal PBM
Molecule type: double-stranded DNA, one strand shown
Sample: in vitro
Tested at: not given
Notes: 8-mer, flanks averaged, mean of replicates
Reading: higher = stronger binding
| Strand | E-score |
| --- | --- |
| CGGATCGA | -0.274 |
| CCATCCGC | -0.184 |
| AGTGGAAT | 0.179 |
| CTCAGCCC | -0.214 |
| AGCCCCTA | -0.252 |
| TGGCCGAA | -0.135 |
| ACCGTAGG | -0.224 |
| CGAAGTCC | -0.155 |
| AGTAAGCC | -0.114 |
| ATCCGTAC | 0.177 |
| CTTAAACA | 0.0461 |
| ACCGTCAC | -0.152 |
| AGACTAAC | -0.00818 |
| ATACAGGG | 0.173 |
| ACGTTACC | -0.0559 |
| AAGATACA | 0.264 |
| GGCAGGAA | -0.093 |
| CTCAGACA | -0.0317 |
| CACAATAA | 0.303 |
| ACACGCGA | 0.0315 |
| TATCGCCA | 0.0285 |

Sample 3
Target: Interferon regulatory factor 7, full length, phosphomimetic (IRF7, Homo sapiens, UniProt Q92985, residues 1-503, S471D/S472D/S475D/S476D/S477D/S483D/S484D/S487D)
Chain of UniProt Q92985 (whole entry, unmodified, looked up): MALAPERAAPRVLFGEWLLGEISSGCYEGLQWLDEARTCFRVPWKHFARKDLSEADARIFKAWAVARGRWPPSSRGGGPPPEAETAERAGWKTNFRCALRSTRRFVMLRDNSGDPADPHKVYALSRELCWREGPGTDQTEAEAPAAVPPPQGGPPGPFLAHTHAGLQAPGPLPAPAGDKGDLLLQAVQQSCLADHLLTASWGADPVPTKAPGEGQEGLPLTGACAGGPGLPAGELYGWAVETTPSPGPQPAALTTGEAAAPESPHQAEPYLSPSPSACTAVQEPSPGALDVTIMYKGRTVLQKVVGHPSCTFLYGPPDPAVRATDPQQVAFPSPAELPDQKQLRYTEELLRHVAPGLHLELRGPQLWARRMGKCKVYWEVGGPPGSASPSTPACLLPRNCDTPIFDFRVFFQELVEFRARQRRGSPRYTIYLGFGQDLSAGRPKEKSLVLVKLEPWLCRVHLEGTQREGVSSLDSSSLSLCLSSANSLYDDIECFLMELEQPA
Technique: protein-binding microarray
Molecule type: double-stranded DNA, one strand shown
Sample: in vitro
Tested at: 2200 nM top
Notes: 60-bp whole probe
Together with: salmon DNA 0.4 mg/ml
Relative to: random background probes
Reading: higher = stronger binding
Shared flanks, not repeated: GCCTAGCAC … GTCTTGATTCGCTTGACGCTGCTG
| Strand | fitted relative affinity |
| --- | --- |
| GACGGACTGGACTATCGAGACGTGCTA | -0.544 z-score |
| TCATTTTTCTAGTCCAGACTGTGCTAG | 2.28 z-score |
| TCAGAACTGAGTTTCGATTAGTGCTAG | 3.81 z-score |
| GGGTTTTTTAGGCAGACAGCGTGCTAG | 0.0429 z-score |
| TTACGTTCCCTTTTCCTTTAGTGCTAG | 4.43 z-score |
| GACGTACTGCTTATCCTGACGTGCTAG | 1.06 z-score |
| GACGATTTCGGGACTGGAGGCGTGCTA | 1.25 z-score |
| TTAAGACTGGGTCTCGGTTAGTGCTAG | -0.0594 z-score |
| GACGGACTGCTACTGCCGACGTGCTAG | -0.329 z-score |
| GAGGGTCTCGGTTTCGGGACGTGCTAG | 3.14 z-score |
| TCACATTTCTGTTTTTGACTGTGCTAG | 3.38 z-score |
| TCATTTTACAATTTGCTACTGTGCTAG | 2.42 z-score |
| TTCGATTCCAGTTTCGATTAGTGCTAG | 6.96 z-score |
| GACGGTTTAGACTTTCGGGACGTGCTA | 2.75 z-score |
| GTAGATATCAGTCTCGATTAGTGCTAG | 0.336 z-score |
| GACGATCTCAGTAGCGAGACGTGCTAG | -0.0792 z-score |
| ATAACCTTGAACTTCGGCCTGTGCTAG | 0.234 z-score |

Sample 4
Target: RING finger protein unkempt homolog, zinc fingers 1-6, GST-SBP tag (UNK, Homo sapiens, UniProt Q9C0B0, residues 30-357)
Technique: RNA Bind-n-Seq
Molecule type: RNA
Sample: in vitro
Tested at: not given
Notes: RNA with constant flanks, human-mouse chimeric sites, ends assumed
Relative to: input RNA pool
Reading: higher = stronger binding
Construct (chain): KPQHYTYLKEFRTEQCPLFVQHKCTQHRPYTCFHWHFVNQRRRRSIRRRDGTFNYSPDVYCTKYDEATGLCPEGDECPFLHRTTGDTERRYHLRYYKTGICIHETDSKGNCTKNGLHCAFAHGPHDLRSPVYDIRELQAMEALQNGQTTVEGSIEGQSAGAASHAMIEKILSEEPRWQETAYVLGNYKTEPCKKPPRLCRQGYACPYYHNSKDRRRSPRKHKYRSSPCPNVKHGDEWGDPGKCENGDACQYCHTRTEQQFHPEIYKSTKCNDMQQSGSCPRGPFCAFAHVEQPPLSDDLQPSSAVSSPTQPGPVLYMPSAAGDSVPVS
| Strand | bound/input enrichment [ratio] |
| --- | --- |
| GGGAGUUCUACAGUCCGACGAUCGCGGCAGAAUCAUGGAGGACAUAAUGCAGCUCCCCAAAGCGCGCGUCAACGCCAGCAUGCUAGCUCAGUAUAUCGACCGGCCCGUGUGCUUCGUGGGGAGGCUGGAAAAGAUUCAUCCCACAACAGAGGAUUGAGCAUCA | 0.112 |
| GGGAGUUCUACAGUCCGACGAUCUGUGAACUGUCUCUUGAUUGGGGUCUAAAACAUGAUUUUUCCUGGCACAUAUUCCAAAGCAAAGACUUUGUUGCCUGCUGCUUAUUGUCUAAUUUACAGGGAUAUUUAAUUUUGUCAGGUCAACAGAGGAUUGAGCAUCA | 0.26 |
| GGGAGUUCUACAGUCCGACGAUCAAUAGAGGAUCCACCUCCCAAAGUGCUCUGGAGCUCUGUGUGGCCACCACACCUAACUUGAUGGAUAUAUAUUUUUUUUAAUAUGAAUCUUCCUGUUCGUCCAGGGAAGAAAGAUUUGUUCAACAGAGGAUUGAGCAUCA | 1.24 |
| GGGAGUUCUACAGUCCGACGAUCCCCCAAUACCAUUUGCAAGAGUUGGAAUGCACUCUCUUUUUUAAAAAACAUGUAUACAUUUUAGGGCUGUAGAUUUAUUUUCCUGGUUUUGUUUUUCAUUGCUGACUUUGAGCACAAGAACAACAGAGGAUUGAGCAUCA | 1.78 |
| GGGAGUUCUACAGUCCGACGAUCAUUGUUGAAGCGAAUCCACUUUUAGAAGCAUUUGGAAAUGCGAAGACUGUUCGCAACAAUAAUAGCAGUCGAUUUGGAAAAUUUGUAGAAAUUCAUUUUAAUGAAAAGAGUUCGGUUGUUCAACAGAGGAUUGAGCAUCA | 0.677 |
| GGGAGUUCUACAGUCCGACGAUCGUGUCCUGCUUUCAACUUAAAUCACUGAGGCAUCUCUACUGUUCUGUGAGCAUCAGGACUGUAGCGCUGUGUCACCACAGAUGAGAACAGAAGCAGCCUUUCUGUGGAGGGUGGGAAUGACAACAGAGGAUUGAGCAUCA | 0.182 |
| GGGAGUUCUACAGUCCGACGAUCCUGGCACUGUAUCAGAUAUAUUAAUUUUUUAAUGUAGAUGUAAUUUUAAAAAUGAAUGGCUAGUUUACACGUUUAACUAGGGUUUUACUAUAUAUGUGUACAUAUGUAUAUAUAUAUAUACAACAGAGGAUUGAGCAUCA | 5.28 |
| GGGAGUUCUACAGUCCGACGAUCGUGCCCUUCUCGCUGCUCCUGCGGGGCAGCUGGGAACCAUUCCGGGACUGGUACCCUGCACACAGCCGCCUCUUCGAUCAAGCUUUCGGGGUGCCCCGGCUGCCGGAUGAGUGGUCGCAGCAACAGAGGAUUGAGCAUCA | 0.0595 |

Excerpt of the above (sample 2):
| Strand | E-score |
| --- | --- |
| CGGATCGA | -0.274 |
| CACAATAA | 0.303 |
| ATCCGTAC | 0.177 |
| ATACAGGG | 0.173 |
